Measurements collected from several papers.
Numbered parts are unrelated; each lists some results of a single study. Positions count from the first letter of the parent shown.

Set 1
Target: Histone acetyltransferase KAT6A, winged helix 1, GST fusion (KAT6A, Homo sapiens, UniProt Q92794, residues 1-85)
Technique: protein binding microarray
Form: double-stranded DNA, one strand shown
Matrix: in vitro
Concentration: not given
Setting: 8-mer, flanks averaged, mean of 2 arrays, mostly near background
Relative to: not given
Direction: higher = stronger binding
Measurement: E-score
Target sequence (chain): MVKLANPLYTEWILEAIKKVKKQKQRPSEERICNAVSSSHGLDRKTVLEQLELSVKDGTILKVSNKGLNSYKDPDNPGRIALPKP
ACATTAGA: -0.133
AACAGTCG: 0.0349
CGACCACC: 0.0512
CACTGAAC: -0.0642
ACGTTCTG: -0.121
ATAGTGAG: -0.1
AGTCATTG: -0.304
CCGGAGCC: 0.192
AACCAGGG: -0.214
CTTTATGA: -0.144
ATCGCCAC: 0.0622
AAGTTCGA: -0.163
ACGTCCCT: -0.087
CAACATCG: 0.133
AGACAACC: -0.107
CGAGTGCG: 0.236
AAGTTAAA: -0.0655

Set 2
Target: RNA binding protein fox-1 homolog 2, RRM domain, GST-SBP tag (RBFOX2, Homo sapiens, UniProt O43251-10, residues 100-194)
Technique: RNA Bind-n-Seq
Form: RNA
Matrix: in vitro
Concentration: 365 nM
Setting: natural RNA segment, single round, ends assumed
Relative to: no-protein control
Direction: higher = stronger binding
Measurement: RBNS enrichment (R)
All sequences stand within: GGGAGUUCUACAGUCCGACGAUC … UGGAAUUCUCGGGUGCCAA
Construct (chain): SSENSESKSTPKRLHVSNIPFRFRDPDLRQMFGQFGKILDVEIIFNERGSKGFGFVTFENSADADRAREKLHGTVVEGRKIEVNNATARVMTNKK
AGUAUUGUCUCUUAGUUAAGUAUGAUUUAUUAACCCAGUGGAGCACUGUCUGCUUUUAAAUUGUCACAUUAGAAUUUGUUCUACCAAUGUUUUGGGUUCUGUUGCGCUAU: 0.617
UCUUAGACUCGAUGCUGUAUAAAAUAUUAUGGGAAAAAAAGAAAAUACGUUAUUUUGCCUCUAAACUUUUAUUGAAGUUUUAUUUGGCAGGAAAAAAAAUUGAAUCUUGG: 1.16
CCGGCCACAGGCAGAGGGAAAGGAACAGGUCAGAGGCGUUGCUCUGGCAGAGGCGGCUCGGGCUGCCCAUCGUGUUUCUGCGGGGUUGAGGUGGGCUCCCUUCUUUGUAG: 0.994
AGACAUAGUUUUACUGCCCCCUUUUUAGCUCAUGGGAUUUCCUGUUUACAGGUAGCAAUAGUCAAUUAUUUAACUACUUAGUUGCCACCAGGAGUCACUGAGCCAAUGAC: 0.226
UAGGAAAAUAAGAAUUAGGUUUCUUUGAAGAAGGAAUCUUUUAUAACACCUUAACAGUCACCACUGUGCUCAACCAGACAGAUAGUGAAACAGCUUUCUGGGUAAUUCAC: 0.305
GGCUCAGAUGGACACAGAAUUCUAGCUUUACCUGCAUCCGCUGAUUCAGUUUUCUGUUGGGAUCAGAGUGAGGAUACUUCCAUAUGGGUGAUAGCAGCCAUGCCCCUGGG: 0.556
UAUGAAAAUGAGCCCUGGCUCCCACCUGUUUCUGGAAGACUGCUCCCGGCCCGCCUGCCCAGACUGAUGAGCACAUCUCUCUGCCCUCUCCCUGUGUUCUGGGCUGGGGC: 0.494
AAAAUUUCUUAAAGAUUUUGGUAAGAAAUAGAAGUCCACAUACAAGCAUUGAGGAAACUGAAAAAUCUUUGUAAGACCCUUAAUGGCUAAAGCCAUUGGCUGUAAUGAGU: 0.553
GACAAUGUGAGAGGACAAAGUAUGAAGAGUCUGGUUUUUACUAGAACCUGACAGAGAAGGGAAGGUUUCUAUAAAAAGAGACACCAGGCUUUGGGGGCCAGGGCUUCAUG: 0.52
CGUCAUUGAGUACCUGAUUUUUAAAAGCAAGCACCCAAAUAAUUCUCUCUAGGGAAUCUCAUUUGUUACAGGUGAGAAGACAGAGGGUUUUAUGGUGCCUGAGUUAGUCC: 0.319
AAACCGGCACCUGCCAGACAGAGCUGGUUCUAAGAUUUAAUACAGUGCUUUUUUUCCUCUUUGAAAUAUUUUACUUUAAUACCAGUGCCUUUUCUUGUUGAACUUCUUGG: 0.576
GAAAACGAUUCUGUCAAGAUCCAAUUGGCUCUAGAUCUACAUUCUUCAAACAAAAUUGGCGUAACUGUUUCAUCUUUAAGUAGCAGUUUGCUGCCAUUUGUAUUCAGCUG: 0.21

Set 3
Target: PABPC1L2, full length, GST fusion (mouse, UniProt A0ABA7IW68)
Technique: RNAcompete
Form: RNA
Matrix: in vitro
Concentration: 20 nM
Setting: 7-mer, probes averaged, single round
Relative to: mean of 7-mers
Direction: higher = stronger binding
Measurement: 7-mer Z-score
Residues (chain): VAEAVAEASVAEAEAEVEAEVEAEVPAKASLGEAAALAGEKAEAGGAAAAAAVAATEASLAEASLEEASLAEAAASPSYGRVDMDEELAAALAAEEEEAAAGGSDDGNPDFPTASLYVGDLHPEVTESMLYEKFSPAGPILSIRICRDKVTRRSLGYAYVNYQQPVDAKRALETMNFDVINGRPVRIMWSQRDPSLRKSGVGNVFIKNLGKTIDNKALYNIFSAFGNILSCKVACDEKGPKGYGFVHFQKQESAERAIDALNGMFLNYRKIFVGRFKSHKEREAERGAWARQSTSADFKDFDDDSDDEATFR
CUAACUG: -0.195
CAAACGU: 0.162
AACGCGG: 0.445
CUAUGGA: -0.0645
UUACUCA: -0.182
CCCUCCC: -0.387
GGCUGAU: -0.0192
GACGGUA: -0.0591
GACCUCC: -0.356
GCUAUCG: -0.182
GCUUCUG: -0.407
CACGGCA: 0.108
GAGUAAA: 0.822
GAUCACA: -0.22
UGGGGUA: 0.18
UACAGCG: 0.017
CAGCUCA: 0.00254
UACUUAU: -0.182
GGUGUCC: -0.146
AGCAUCC: -0.242
CGCAACG: -0.13
GCCACCU: -0.257
GCCGGCG: -0.349
CACAAGG: 0.000733

Set 4
Target: ABI1, truncated, D143A, DHFR fusion (Arabidopsis thaliana)
Technique: DHFR PCA, deep sequencing
Matrix: yeast
Setting: methotrexate growth selection, single substitutions
With: (+)-ABA 710 µM
Relative to: wild-type fitted maximum
Direction: higher = stronger binding
Measurement: relative binding score
Parent: PYL1, truncated, DHFR fusion (Arabidopsis thaliana); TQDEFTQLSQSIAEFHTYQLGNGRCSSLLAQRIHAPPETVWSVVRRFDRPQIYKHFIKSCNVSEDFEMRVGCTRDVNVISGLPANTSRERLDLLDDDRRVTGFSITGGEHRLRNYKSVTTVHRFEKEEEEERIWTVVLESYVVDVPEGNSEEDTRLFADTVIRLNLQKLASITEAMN
V100L: 103%
V136E: 84.3%
V76E: -8.17%
I12Q: 90.7%
S150E: 87.2%
F66Q: 98.5%
V70C: 97.2%
R90H: 93.8%
N114T: 67%
L93N: 81.1%
L166P: 22.9%
Y18S: 94.6%
A158V: 104%
P36V: 92.2%
E67W: 96.6%

Set 5
Target: Interferon regulatory factor 7, full length, phosphomimetic (IRF7, Homo sapiens, UniProt Q92985, residues 1-503, S101K/S471D/S472D/S475D/S476D/S477D/S483D/S484D/S487D)
Technique: protein-binding microarray
Form: double-stranded DNA, one strand shown
Matrix: in vitro
Concentration: 250 nM
Setting: 60-bp whole probe
With: salmon DNA 0.4 mg/ml
Relative to: random background probes
Direction: higher = stronger binding
Measurement: log fluorescence
All sequences stand within: GCCTAGCAC … GTCTTGATTCGCTTGACGCTGCTG
Target sequence (chain): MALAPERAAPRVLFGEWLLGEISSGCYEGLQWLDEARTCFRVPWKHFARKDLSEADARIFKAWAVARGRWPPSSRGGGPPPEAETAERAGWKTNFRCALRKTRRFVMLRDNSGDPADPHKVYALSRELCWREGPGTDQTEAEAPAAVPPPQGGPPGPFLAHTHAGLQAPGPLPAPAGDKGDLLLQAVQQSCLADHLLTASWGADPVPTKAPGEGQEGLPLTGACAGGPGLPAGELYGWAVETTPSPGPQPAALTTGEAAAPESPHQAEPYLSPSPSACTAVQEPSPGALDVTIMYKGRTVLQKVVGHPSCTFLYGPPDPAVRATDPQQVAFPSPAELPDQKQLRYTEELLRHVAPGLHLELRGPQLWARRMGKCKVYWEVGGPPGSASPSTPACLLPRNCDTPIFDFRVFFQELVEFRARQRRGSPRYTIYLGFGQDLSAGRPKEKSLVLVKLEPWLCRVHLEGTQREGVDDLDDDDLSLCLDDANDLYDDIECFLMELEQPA
TCACGTCTGGGTGTTTTACTGTGCTAG: -0.355 z-score
ACGCATGTGGGTTCCATCATGTGCTAG: -0.596 z-score
CTTCCCCTCTCATTCCAATTGTGCTAG: 1.69 z-score
TCACGTCTGATTTTGCTACTGTGCTAG: 0.25 z-score
GACGGACTGGGGACTCGGGACGTGCTA: -0.584 z-score
GGCGGTCTCGGTTTCGGGACGTGCTAG: 7.98 z-score
TTTGGTCTCGGACTGGGTTAGTGCTAG: 0.596 z-score
GACGTTATCGGTTTCGGGACGTGCTAG: 3.6 z-score
CACATTCTCTGCTTGGGTCTGTGCTAG: 1.14 z-score
TTAGATTTCAGTACCGATTAGTGCTAG: 0.575 z-score
CTTCTTTTGCTAATTTTTTTGTGCTAG: 1.37 z-score
GACGATTCCAGGTTCGAGACGTGCTAG: 1.26 z-score
TCATAACTCATTCTCCAACTGTGCTAG: 0.686 z-score
TTAGATAGCAGTATCGATTAGTGCTAG: 0.319 z-score
TTAGGTTTCCTAATGCTTTAGTGCTAG: 1.99 z-score
GACGATCCCAGTTTCGAGACGTGCTAG: 4.6 z-score
TCAGATTTCAGTTTCGATTAGTGCTAG: 8.99 z-score

Set 6
Target: CCNE1, cyclin fold, Cln2 fusion (human)
Technique: yeast growth competition, sequencing
Matrix: yeast
Setting: strong parent motif
Relative to: not given
Direction: higher = stronger binding
Measurement: normalised enrichment score
Parent: CDKN1B docking peptide (human); PSACRNLFGPVDH
N6H: 0.447
P10F: 2.09
C4R: 3.07
V11P: 2.95
S2T: 2.75
H13P: 3.12
L7I: 1.6
V11N: 2.63
P1T: 3.62
V11C: 2.41
S2Q: 1.81
H13A: 2.73
D12H: 2.96
D12P: 2.73
F8A: 0.291
N6P: 0.0877
V11T: 2.94
P1E: 3
S2F: 1.62

Repeated from above (set 1):
ACATTAGA: -0.133
AACAGTCG: 0.0349
CGACCACC: 0.0512
CACTGAAC: -0.0642
ACGTTCTG: -0.121
ATAGTGAG: -0.1
AGTCATTG: -0.304
CCGGAGCC: 0.192
AACCAGGG: -0.214
CTTTATGA: -0.144
ATCGCCAC: 0.0622
AAGTTCGA: -0.163
ACGTCCCT: -0.087
CAACATCG: 0.133
